Assay results collected from several papers.
Lines come from different studies, so protocols differ. ± marks the error that the study gave. In brackets after ≈: the same amount, converted by molar mass.

For `Cc1cc(-c2cc(OC(=O)c3ccccc3)ccc2Cl)cc2nnc(Nc3ccc(OCCN4CCCC4)cc3)nc12`, the AUC(0-24 h) was 2.21 µM·h (Long Evans rat, retina; topical, 1%).
For `Cc1cccc(N(C)c2nccc(-c3cnn4ncccc34)n2)c1`, the CLint was 75 ± 5 µL/min/mg (human liver microsomes).
For `CCCOc1ccc([C@H]2CNC(=O)N2c2ccc3[nH]cnc3c2)cc1`, the AUC(0-12h) was 3420 ng·h/mL (human volunteers fasted, plasma; oral solution, 400 mg single dose, day 1, geometric mean).
With `O=C1Nc2ccc(C(F)(F)F)cc2C(=O)CCc2ccccc21` the kinetic solubility was 25 to 50 µg/mL (≈ 78.3 to 157 µM) (nephelometry; aqueous buffer; 30 min, pH 6.5).
`COc1ccc2c(c1)CN(Cc1ccc(C(=O)O)cc1)CCS2` gave a plasma concentration of 893 ng/mL (mdx mice, plasma; oral, drinking water, 10 mg/kg, 12 wk treatment, 2 h after water withdrawal).
For `CCCC[C@@H]1NC(=O)[C@@H](NC(=O)[C@H](CCC(=O)O)NC(=O)CNC(=O)CN2CCN(CC(=O)O)CCN(CC(=O)O)CCN(CC(=O)O)CC2)CCCCNC(=O)C[C@@H](C(N)=O)NC(=O)[C@H](C(C)C)NC(=O)[C@@H]2CCCN2C(=O)[C@H](CCCNC(=N)N)NC(=O)CNC(=O)[C@H](Cc2c[nH]c3ccccc23)NC(=O)[C@H](CCCNC(=N)N)NC(=O)[C@@H](Cc2ccccc2)NC(=O)[C@H](Cc2c[nH]cn2)NC(=O)[C@H](CCC(=O)O)NC1=O` [indium-111 labelled], the tissue uptake was 0.03 ± 0.02 %ID/g (normal C57 mice, lung; intravenous, 0.037 MBq, 24 h).
For `Cc1cc(Nc2cc3ncccc3c(N[C@@H]3C[C@H]4CC[C@@H](C3)N4CCC#N)n2)n[nH]1`, the AUC(0-24 h) was 1530 ng·h/mL (rat, female, plasma; oral, 1000 mg/kg/day, last dosing day, 13-week repeat dose; mean).
`N=C(N)NC(=O)c1cnn(-c2cccc3ncccc23)c1C1CC1` has a CLint of 84.4 ± 2.75 mL/min/kg (guinea pig Hartley male, hepatic S9; 1 µM, pH 7.4, with: without NADPH).
With `C=C1[C@H](CO)[C@@H](O)C[C@@H]1n1cnc2c(=O)[nH]c(N)nc21` the t1/2 was 1.19 ± 0.43 h (male Sprague-Dawley rat, plasma; oral, 1 mg/kg, with: CdG 1 mg/kg).
`CC(C)[C@H](N)C(=O)NCCCS(=O)(=O)O` has an oral bioavailability of ~52% (human, both sexes; oral, 265 mg, immediate-release tablet, from urinary recovery).
`CC1=C2C[C@H]3[C@@H](CC[C@@H]4C[C@H](NS(C)(=O)=O)CC[C@@]43C)[C@@H]2CC[C@@]2(C1)O[C@@H]1C[C@H](C)CN[C@H]1[C@H]2C` has an AUC(0-24) of 1920 ng·h/mL (patients, plasma; oral, 210 mg single, day -7, cycle 1).
`[2H]C([2H])([2H])Oc1cc2c(cc1OC([2H])([2H])[2H])C1CC(=O)C(CC(C)C)CN1CC2` (stereo not drawn) has a dose-normalized Cmax of 2.5 ng/mL (item: deuterated total (α+β)-HTBZ; healthy human volunteers, plasma; oral, 6 mg single dose, standard meal).
With `CC(=O)Nc1ccc(O)cc1` the AUC(0-12 h) was 35300 ng·h/mL (healthy volunteers, both sexes, plasma; oral, dose not given, day 6, with: favipiravir, extended).
`COc1c(C)c2c(c(O)c1C/C=C(\C)CCC(=O)O)C(=O)OC2` has a trough concentration of 3690 ± 2020 ng/mL (stable kidney transplant recipients, plasma; oral, dose not given, 12 h post-dose, steady state, with: tacrolimus).
`COCCNC(=O)c1ccc(OC2CCN(Cc3ccc(F)c(F)c3)CC2)c(Cl)c1` has a maximum solubility of 100 µM (0.1 M sodium acetate with 0.01% Triton X-100; pH 5.5).
`COc1cccc2c1C(=O)c1c(O)c3c(c(O)c1C2=O)C[C@@](O)(C(=O)CO)C[C@@H]3O[C@H]1C[C@H](N)[C@H](O)[C@H](C)O1` gave an AUC of 1330 µM·h (mouse, E0771 tumour-bearing, tumor; intravenous, 92 µmol/kg).
With `CN[C@@H]1[C@H](O)[C@H](NC)[C@H]2O[C@]3(O)[C@H](O[C@@H]2[C@H]1O)O[C@H](C)C[C@H]3NC(=O)Cc1ccc(O)cn1` the parent remaining was 98.6% (glutathione conjugation; rat liver S9; 100 µM, 2 h, pH 7.4, with: glutathione 0.2 mM).
`CC1(C)C(/C=C/C=C/C=C/C=C2\N(CCCCS(=O)(=O)O)c3ccc4ccccc4c3C2(C)C)=[N+](CCCCS(=O)(=O)[O-])c2ccc3ccccc3c21` — result for “fluorescence quantum yield”: 7.76 ± 0.59% (integrating sphere; human serum; 1 h, room temperature, excitation 780 nm).
For `CCCCCCCCC/C=C/C(=O)CCc1ccc(O)c(OC)c1`, “amount recovered, maximum” read 5020 ng (human ileostomy patients, ileal effluent; oral, 5 g TU-100, 4 h, no β-glucuronidase treatment).
With `COc1cc(Nc2ncc3c(n2)-c2ccc(Cl)cc2C(c2c(F)cccc2OC)=NC3)ccc1C(=O)O` the trough concentration was 1010 ± 230 nM (children, UGT1A1 extensive metabolizers, plasma; oral, 80 mg/m2, day 4).
With `C=CC(=O)Nc1cc(Nc2nccc(-c3cn(C)c4ccccc34)n2)c(OC)cc1N(C)CCN(C)C` the MRT(0-inf) was 11.7 ± 1.13 h (Sprague-Dawley rat, male, plasma; oral, 10 mg/kg, with: avitinib 30 mg/kg daily for 7 days).
`CCCC[C@H](NC(C)=O)C(=O)N[C@H]1CCC(=O)NC[C@@H](C(=O)N[C@@H](Cc2c[nH]c3ccccc23)C(N)=O)NC(=O)[C@H](CCCNC(=N)N)NC(=O)[C@@H](Cc2ccccc2)NC(=O)[C@H](Cc2c[nH]cn2)NC1=O` has an AUC(0-last) of 239 ng·h/mL (beagle dog, male, plasma; subcutaneous, 1.5 mg/kg daily, day 14).
The plasma concentration of `Cc1c(C(=O)NN2CCCCC2)nc(-c2ccc(Cl)cc2Cl)n1-c1ccc(OS(=O)(=O)CCC(F)(F)F)cc1` is reported as 2220 nM (LC-MS/MS; cynomolgus monkey 3; intravenous infusion, 6.0 mg/kg, 90 min, total, PET mid-point).
`O=C(O)[C@H](c1ccccc1Cl)N1CCc2sccc2C1`: “deviation from nominal” 13% (HPLC-MS/MS; feline citrate plasma; 12 h, 4 °C, storage stability).
For `CCCCCCCCCCCCCNCC(=O)N(CC(=O)N(CCCCN)CC(=O)N(CCN)CC(=O)N(CC(N)=O)c1ccccc1)c1ccccc1`, “acetonitrile at elution” read 67.7% (preparative RP-HPLC C18; water to acetonitrile gradient; 0.05% TFA in eluent; higher = more hydrophobic).
With `COCCOc1nc(N)c2[nH]c(=O)n(Cc3ccc(C(=O)O)cc3)c2n1` the unbound fraction was 0.746 (rapid equilibrium dialysis; dialyzed fetal bovine serum).
`CS(=O)(=O)Nc1ccc(C(=O)O[C@@H](Cc2c(Cl)c[n+]([O-])cc2Cl)c2ccc(OC(F)F)c(OCC3CC3)c2)cc1OCC1CC1` gave a tmax of 1.74 h (human, plasma; inhaled, 100 µg single dose, single-dose dry powder inhaler).
For `C[C@H](O)[C@@H](NC(=O)[C@@H](Cc1c[nH]c2ccccc12)NC(=O)[C@@H](CCC(=O)O)NC(=O)CNC(=O)[C@@H](CCCCN)NC(=O)[C@H](N)Cc1c[nH]c2ccccc12)C(=O)NCC(=O)N[C@H](CCCNC(=N)N)C(=O)NCCC(=O)NCCCC[C@H](NC(=O)CCNC(=O)[C@@H](CCCNC(=N)N)NC(=O)CNC(=O)[C@H](NC(=O)[C@@H](Cc1c[nH]c2ccccc12)NC(=O)[C@@H](CCC(=O)O)NC(=O)CNC(=O)[C@@H](CCCCN)NC(=O)[C@H](N)Cc1c[nH]c2ccccc12)[C@H](C)O)C(=O)NCCCC[C@H](NC(=O)[C@H](CCCCNC(=O)CCNC(=O)[C@@H](CCCNC(=N)N)NC(=O)CNC(=O)[C@H](NC(=O)[C@@H](Cc1c[nH]c2ccccc12)NC(=O)[C@@H](CCC(=O)O)NC(=O)CNC(=O)[C@@H](CCCCN)NC(=O)[C@H](N)Cc1c[nH]c2ccccc12)[C@H](C)O)NC(=O)CCNC(=O)[C@@H](CCCNC(=N)N)NC(=O)CNC(=O)[C@H](NC(=O)[C@@H](Cc1c[nH]c2ccccc12)NC(=O)[C@@H](CCC(=O)O)NC(=O)CNC(=O)[C@@H](CCCCN)NC(=O)[C@H](N)Cc1c[nH]c2ccccc12)[C@H](C)O)C(=O)N[C@@H](CS)C(=O)O`, “time detected in plasma” read 4 h (ELISA; BALB/c mouse, plasma; sc, 200 µg).
The AUC(0-inf) of `C=CC(N)CCC(=O)O` (stereo not drawn) is reported as 17700 ± 533 ng·h/mL (male Sprague-Dawley rat, plasma; oral, 10 mg/kg, formulation 8, with: infant formula 1500 mg/kg).
For `Cn1c(-c2ccc(C(N)=O)cc2F)nnc1C(C)(C)Oc1c(F)cc(Cl)cc1F`, the Cmax mean was 767 ng/mL (healthy young Japanese subjects, plasma; oral, 50 mg once daily, day 18, 14 days dosing).
`Cc1nc(-c2ccc(OCC(C)C)c(C#N)c2)sc1C(=O)O` gave an AUC(0-24) of 7700 ng·h/mL (adults with gout, plasma; oral, 80 mg, with: verinurad 10 mg).
`COc1cc(/C=C/C(=O)CC(=O)/C=C/c2ccc(O)c(OC)c2)ccc1O` gave an aglycone fraction of 30 to 44% (C57BL/6J mice, bone marrow; oral, 500 mg/kg, 30 min; relative to: total).
For `CON`, the elimination half-life was 45.1 h (LC-MS/MS; cancer patients, plasma; iv infusion, 120 h, 16 cycles, with: oral temozolomide).
`COCCNC(=O)CN(CCN(CCN(CC(=O)[O-])CC(=O)NCCOC)CC(=O)[O-])CC(=O)[O-].[Gd+3]` — result for “T1 relaxivity r1”: 4.5 ± 0.1 mM⁻¹ s⁻¹ (MRI at 9.4 T; saline; 37 °C, per Gd).
Under “elimination rate constant”, `CCOc1ccc(Cc2cc([C@@H]3S[C@H](CO)[C@@H](O)[C@H](O)[C@H]3O)c(OC)cc2C)cc1` is recorded as 1.89e-05 ± 2.02e-06 s⁻¹ (human; oral, 5 mg, fasted).
The adverse events of `COc1ccc2nc([S@@+]([O-])Cc3ncc(C)c(OC)c3C)[nH]c2c1` is reported as 0% (human healthy; 40 mg, vessel puncture site reaction).
